Assay results collected from several papers.
Compare with care: the assays were run in different laboratories. “And” joins repeats or separate records; there may be more than shown. Numbers after ± are the reported error. Values after ≈ are worked out from the molar mass of the structure shown.
Sequence of UniProt P20813 (whole entry, looked up): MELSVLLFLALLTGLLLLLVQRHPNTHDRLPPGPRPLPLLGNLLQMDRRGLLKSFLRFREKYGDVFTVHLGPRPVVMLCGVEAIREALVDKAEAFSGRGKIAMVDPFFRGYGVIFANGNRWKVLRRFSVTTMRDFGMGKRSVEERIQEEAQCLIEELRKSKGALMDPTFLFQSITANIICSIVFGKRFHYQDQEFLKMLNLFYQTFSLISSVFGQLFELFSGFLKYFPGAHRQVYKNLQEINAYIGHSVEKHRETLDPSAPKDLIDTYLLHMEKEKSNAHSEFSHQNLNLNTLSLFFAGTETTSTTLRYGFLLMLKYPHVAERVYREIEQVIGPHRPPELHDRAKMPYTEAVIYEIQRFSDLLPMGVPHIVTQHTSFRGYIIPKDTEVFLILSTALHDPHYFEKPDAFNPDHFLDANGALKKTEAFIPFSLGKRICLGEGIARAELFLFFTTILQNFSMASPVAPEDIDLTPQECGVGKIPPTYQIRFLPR
Sequence of UniProt O94762 (whole entry, looked up): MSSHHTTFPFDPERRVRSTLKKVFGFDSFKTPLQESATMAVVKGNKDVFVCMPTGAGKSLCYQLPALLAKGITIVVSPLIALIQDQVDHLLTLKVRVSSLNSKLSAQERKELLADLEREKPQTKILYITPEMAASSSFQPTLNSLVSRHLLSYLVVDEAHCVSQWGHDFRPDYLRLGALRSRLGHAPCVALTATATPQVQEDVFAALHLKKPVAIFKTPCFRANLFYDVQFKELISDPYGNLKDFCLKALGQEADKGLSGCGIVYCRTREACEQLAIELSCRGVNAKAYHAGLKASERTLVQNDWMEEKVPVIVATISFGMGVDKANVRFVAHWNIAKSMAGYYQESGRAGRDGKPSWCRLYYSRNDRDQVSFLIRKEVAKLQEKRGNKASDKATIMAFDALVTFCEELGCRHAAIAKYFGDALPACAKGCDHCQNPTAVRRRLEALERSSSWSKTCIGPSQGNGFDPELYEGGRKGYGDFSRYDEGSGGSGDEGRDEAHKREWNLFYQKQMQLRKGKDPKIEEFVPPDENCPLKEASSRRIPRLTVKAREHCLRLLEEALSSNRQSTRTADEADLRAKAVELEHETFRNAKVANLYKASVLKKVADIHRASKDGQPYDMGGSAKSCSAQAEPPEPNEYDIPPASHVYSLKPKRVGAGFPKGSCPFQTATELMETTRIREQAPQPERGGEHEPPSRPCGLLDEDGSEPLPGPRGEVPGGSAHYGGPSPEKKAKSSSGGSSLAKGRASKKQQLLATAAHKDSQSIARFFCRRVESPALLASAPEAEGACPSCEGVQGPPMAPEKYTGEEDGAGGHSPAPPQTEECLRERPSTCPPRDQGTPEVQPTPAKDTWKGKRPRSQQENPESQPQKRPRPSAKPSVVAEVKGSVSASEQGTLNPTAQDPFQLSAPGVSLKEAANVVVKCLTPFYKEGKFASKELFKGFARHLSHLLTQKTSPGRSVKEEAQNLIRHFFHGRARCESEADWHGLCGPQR

O=C(Nc1cnccc1-c1ccc([18F])nc1)c1ccnc(NC(=O)C2CC2)c1 — SUV (FVB/NJ mice (both sexes), urine; intravenous, dose not given, 120 min, together with: tariquidar 15 mg/kg i.v. pre-dose): 18.9
Cc1ncsc1-c1ccc(C(C)NC(=O)C2CC(O)CN2C(=O)C(NC(=O)CCCCCCCCCCN2CCCC(Nc3ncc(Cl)c(Nc4ccccc4S(=O)(=O)C(C)C)n3)C2)C(C)(C)C)cc1 (stereo not shown) — log2 fold change (22Rv1; RNA-seq, item: ZNF135 mRNA; concentration not given; relative to: DMSO): -3.06
COC1CN([C@H]2CC[C@H]([C@@]3(C)Oc4c(Cl)cc(C(=O)NCc5c(SC)cc(C)[nH]c5=O)c(C)c4O3)CC2)C1 — log2 fold change (RNA-seq, item: NDNF mouse homolog; mouse, HT-1376 xenograft, whole blood; dose not given; relative to: vehicle): 0.21
CCCCN1C(=O)c2cccc3c(NCCCCCCN4CCOCC4)ccc(c23)C1=O — fluorescence lifetime (dioxane): 10.3 ns
CN(C)C(=O)c1cccc(N2Cc3cn(Cc4ccc(F)cc4)nc3C2)c1 — half-life (metabolic stability; human, liver microsomes): 1.6 h
CNC(=O)C1CCCN(C(=O)C2CC3CCC2N3C(=O)[C@@H]2C[C@@H](O)CN2C(=O)NCc2cccc(Cl)c2F)C1 (mixture of isomers) — remaining activity (Cytochrome P450 2B6 (CYP2B6, Homo sapiens, UniProt P20813); preincubation without NADPH; human; 0.0686 µM; relative to: negative control): 102% and 104% and 107%
CC(C)OCCOCc1ccc(OCC(O)CN(N=O)C(C)C)cc1 (stereo not shown) — revertant fold increase (Salmonella typhimurium; Ames test; TA100; 5 µg/plate, 30 % rat S9; relative to: solvent control): 0.8 fold
CCCC[C@H]1C(=O)N(C)[C@@H](CCCC)C(=O)N[C@@H](CCCCNC(=S)Nc2ccc(CN3CCN(CC(=O)O)CCN(CC(=O)O)CC3)cc2)C(=O)N[C@H](C(=O)NCC(N)=O)CSCC(=O)N[C@@H](Cc2ccc(O)cc2)C(=O)N(C)[C@@H](C)C(=O)N[C@@H](CC(N)=O)C(=O)N2CCC[C@H]2C(=O)N[C@@H](Cc2cnc[nH]2)C(=O)N[C@@H](CCC(=O)O)C(=O)N2C[C@H](O)C[C@H]2C(=O)N[C@@H](Cc2c[nH]c3ccccc23)C(=O)N[C@@H](CO)C(=O)N[C@@H](Cc2cn(CC(=O)O)c3ccccc23)C(=O)N1C [fluorine-18 labelled] — SUV (PET, item: PD-L1; huCD34 mouse A-375 xenograft, tumour core within 3 mm; anti-PD-1 monotherapy): 1.92 ± 0.3 SUV
C=Cc1ccc([B-]23OC(=O)C(c4ccccc4)=N[N+]2=Cc2ccc(N(CC)CC)cc2O3)cc1 (stereo not shown) — hydrolysis activation energy (UV/vis decay; aqueous buffer): 23.1 kcal/mol
C=CC(=O)Oc1ccc(OC)c(-c2c[nH]c3ncc(-c4cncc(C(=O)N(C)C)c4)cc23)c1 — hydrolytic half-life (HPLC; 50 µM, 37 °C, no lysine, followed to 24 h): > 24 h
C=CC(=O)Nc1cc(Nc2nccc(-c3cn(C)c4ccccc34)n2)c(OC)cc1N(C)CCNC — recovery (human plasma; 5 h, storage stability, low QC sample): 98.1%
CCN(CC)CC#CCNc1ccnc2cc(Cl)ccc12 — revertants (Salmonella typhimurium; mini-Ames test; TA97a; 500.0 µg/well, with rat liver S9): 0 revertants/well
CN1CCC[C@]1(C)/C=C/S(=O)(=O)NC(=O)Nc1c2c(cc3c1CC(O)C3)CCC2 (stereo partly shown) — AUC(0-24) (human, plasma; oral, 12.5 mg twice daily of parent drug, day 14, metabolite of dosed drug): 31.1 µg·h/mL
CN(O)C(=O)CCC(=O)NCCCN(CCCCN(CCCNC(=O)CCC(=O)N(C)O)C(=O)CCC(=O)N(C)O)C(=O)CCC(=O)N(C)O.[89Zr] — intact complex (radio-TLC; aqueous buffer; 5 d, pH 7, 37 °C, 89Zr-labelled complex, together with: DTPA 1000-fold excess): 92.9 ± 0.9%
CC(C)C[C@H](NC(=O)[C@@H](CCCCNC(=O)[C@@H](Cc1ccccc1)NC(=O)CCCCCNC(=O)CN1CCN(CC(=O)O)CCN(CC(=O)O)CCN(CC(=O)O)CC1)NC(=O)[C@H](Cc1ccc(O)cc1)NC(=O)[C@H](CO)NC(=O)[C@H](Cc1c[nH]c2ccccc12)NC(=O)[C@H](Cc1c[nH]cn1)NC(=O)[C@@H]1CCC(=O)N1)C(=O)N[C@@H](CCCNC(=N)N)C(=O)N1CCC[C@H]1C(=O)NCC(N)=O [indium-111 labelled] — tissue uptake (female athymic nude mice, tumor; intravenous, 0.037 MBq, 2 h): 0.2 ± 0.04 %ID/g
CC(C)C[C@H](NC(=O)[C@@H](CCCCNC(=O)CCCCCCCCCCNC(=O)CN1CCN(CC(=O)O)CCN(CC(=O)O)CCN(CC(=O)O)CC1)NC(=O)[C@H](Cc1ccc(O)cc1)NC(=O)[C@H](CO)NC(=O)[C@H](Cc1c[nH]c2ccccc12)NC(=O)[C@H](Cc1cnc[nH]1)NC(=O)[C@@H]1CCC(=O)N1)C(=O)N[C@@H](CCCN=C(N)N)C(=O)N1CCC[C@H]1C(=O)NCC(N)=O [indium-111 labelled] — tissue uptake (athymic nude mouse, female, whole blood; intravenous, 0.037 MBq, 2 h): 0.78 ± 0.15 %ID/g
COC(=O)[C@@]1(C(C)C)C=C(C(=O)Nc2cccc(C(=O)Nc3ccc(Nc4nccc(-c5cccnc5)n4)c(C)c3)c2)C(=O)CC1 — compound remaining (rat, plasma; 10 µM, 5 min): 101%
Cc1cc(-c2ccc(C(=O)[C@@H]3CCCC[C@H]3C(=O)Nc3cnn4c3C(=O)NCC4)cc2)[nH]n1 — radioactivity recovery per interval (human, faeces; oral, 200 mg, 96-120 h; relative to: dose): 2.08% and 12.7% and 1.02% and 0.52%
CC[C@H](C)[C@@H]1NC(=O)[C@H](Cc2ccc(O)cc2)NC(=O)CCCSC[C@@H](C(=O)N(CC(=O)N[C@@H](CC(C)C)C(=O)NCC(N)=O)Cc2ccc(F)cc2)NC(=O)[C@H](CC(N)=O)NC(=O)[C@H](CCC(N)=O)NC1=O — drug-related headache (human; intranasal, 5 µg single dose): 33%
O=S1(=O)CC2CCCCC2CS1 (stereo not shown) — solubility (phase solubility, NMR; water; 25 °C, together with: hydroxypropyl-β-cyclodextrin 457 mM): 49 mM (≈ 10.1 mg/mL)
C=CC(=O)Nc1cccc(Cn2ncc3cnc(Nc4cnn(CCOC)c4)nc32)c1 — percent of control (PRKD3 human; binding, KINOMEscan; 100 nM; lower = stronger binding): 100%
Nc1ncc(-c2cc(-c3cnn(CC(F)(F)F)c3)ncc2F)nc1C(=O)NC1CNCC(F)C1 (stereo not shown) — remaining binding (MEK6; KINOMEscan; 1 µM; relative to: DMSO control): 83%
Cc1ccc(OCC(=O)N(Cc2cccs2)c2ccn[nH]2)cc1 — remaining compound (monkey plasma; 750 ng/mL, 0.25 h, 37 °C, unit not given; relative to: time zero): 102
O=C(Nc1cnccc1-c1ccc([18F])cc1)c1ccnc(NC(=O)C2CC2)c1 — SUV (FVB/NJ mouse, both sexes, brain; intravenous, 3 min post-injection, together with: P-gp inhibitor tariquidar 15 mg/kg iv): 0.93 ± 0.36
C/C(N)=N/C(=N\S(=O)(=O)c1ccc(C(F)(F)F)cc1)N1C[C@H](c2ccccc2)C(c2ccc(Cl)cc2)=N1 — oral bioavailability (Beagle dog, plasma; oral, 36 mg/kg): 19.3%
Cc1nn(-c2cccc(N)c2)c(=O)c2cnc(Nc3ccc(N4CCNCC4)cc3)nc12 — IC50 (FLT3 (Homo sapiens, UniProt P36888, D835Y); kinase activity, inhibitor, SelectScreen kinase profiling): > 10 µM
CN1CCC[C@]1(C)/C=C/S(=O)(=O)NC(=O)Nc1c2c(cc3c1CCC3)CCC2 — subjects with adverse event (item: neutrophil count decreased, possibly related; human; oral, 12.5 mg twice daily, 14 days, multiple ascending dose): 16.7%
CCC(C(=O)Nc1ccc(C(N)=O)c(F)c1)n1cc(OC)c(-c2cc(Cl)ccc2-n2cc(C(F)(F)F)nn2)cc1=O (stereo not shown) — treatment-emergent adverse events (healthy male humans; 25 mg, ASD vs IR, fasted): 13.3%
O=C1C2CC3CC1CC(C(=O)N1CCN(c4ccc([N+](=O)[O-])c5ncccc45)CC1)(C3)C2 — mean revertant colonies (Salmonella typhimurium; Ames test; TA100; 0.13 µg/well, with S9): 26 colonies/well
CC[C@H](C)[C@H](NC(=O)[C@H](CCC(N)=O)NC(=O)[C@@H](NC(=O)[C@@H]1CCCN1[C@@H]1CN(C(=O)[C@H](CCCCN)NC(=O)[C@H](CC(N)=O)NC(=O)[C@@H](NC(=O)[C@@H](NC(=O)[C@H](CCC(N)=O)NC(=O)[C@@H](N)C(C)C)[C@@H](C)CC)[C@@H](C)CC)CC[C@H]1NS(=O)(=O)c1ccc(C)cc1)C(C)C)C(=O)N[C@H](C(=O)N[C@@H](Cc1ccc(O)cc1)C(=O)N[C@@H](CCCCN)C(N)=O)C(C)C — beta-sheet content (CD spectroscopy; 20 mM phosphate buffer; 125 µM, 37 °C): 39.5%
COc1ccc(Nc2nc(Nc3ccc(OCCOCCOCC[18F])cc3)ncc2Br)cc1 — uptake ratio (ICR mice, S180 tumour; intravenous, 370 kBq, 30 min; relative to: tumour over bone): 1.06
O=C(O)CCCOc1ccc([18F])cc1-c1cc(-c2ccccc2C(F)(F)F)n(-c2ccccc2)n1 — peak radioactivity (mouse, liver; dose not given, immediately after administration): 12.3 %ID/organ
CN1CCCNC(=O)c2cccc(c2)C(=O)NCCCN(C)CCCNc2cccc3c2C(=O)c2cccc(c2C3=O)NCCC1 — ALT (mouse, serum; dose not given): 27 IU/L and 30 IU/L and 31 IU/L
COc1ccccc1-c1ccncc1C(=O)Nc1nnc(OCc2ccc(Cl)cc2)s1 — remaining activity (RECQL5 (Homo sapiens, UniProt O94762); ATPase activity, ADP-Glo; 0.03 µM, 1 h): 101%
CC(C)(C)C(=O)Nc1ccc2[nH]c(CN3CCC(N(CCCN4CCOCC4)CC4OC(n5cnc6c(N)ncnc65)C(O)C4O)CC3)nc2c1 (stereo not shown) — concentration (male Sprague-Dawley rat, plasma; intravenous, 20 mg/kg, 10 h): 26 ng/mL
C=C(NC(=O)c1csc(-c2nc3c(cc2O)-c2nc(cs2)C(=O)NC(C(C)O)C(=O)NC(=C(C)OC)c2nc(cs2)C(=O)NC2c4nc(cs4)C(=O)NC(COC(=O)c4c5c6c(cccc6n4O)COC(=O)C(OC4CC(C)(O)C(N(C)C)C(C)O4)C2OC5)c2nc-3cs2)n1)C(N)=O (stereo not shown) — half-life (female cynomolgus monkey, plasma; intravenous, 9 mg/kg, single dose, infusion): 6.24 h
Cc1nc(N)nc2c1C(=O)N[C@@H](c1ccc(F)cc1-c1cccc(O[11CH3])n1)C2 — SUV (ex vivo biodistribution; mouse, U87 subcutaneous xenograft, red blood cells; 60 min, vehicle pretreatment baseline): 0.7 ± 0.02
CN1CCC[C@]1(C)/C=C/S(=O)(=O)NC(=O)Nc1c2c(cc3c1C(O)CC3)CCC2 (stereo partly shown) — AUC(0-24) (human, plasma; oral, 50 mg twice daily of parent drug, day 14, metabolite of dosed drug): 208 µg·h/mL
O=C(O)CCCCC1(N(CC(=O)O)CC(=O)O)CN(CC(=O)O)CCN(CC(=O)O)C1 — protonation constant (log) (pH-potentiometry, item: logK1H; 0.15 M NaClO4; 25 °C): 10.2
Cc1nn(-c2nc3c(F)cc(F)cc3s2)c(O)c1C(c1ccc(C(F)(F)F)cc1)c1c(C)nn(-c2nc3c(F)cc(F)cc3s2)c1O — AUMC(0-t) (ICR mouse, plasma; intravenous, 5 mg/kg): 215000 h²·ng/mL and 771000 h²·ng/mL and 195000 h²·ng/mL
